# Assay results collected from several papers.
# Every numbered part comes from another study and shows a few of its results, in no order.
# UniProt P15056, sequence (whole entry, unmodified, looked up): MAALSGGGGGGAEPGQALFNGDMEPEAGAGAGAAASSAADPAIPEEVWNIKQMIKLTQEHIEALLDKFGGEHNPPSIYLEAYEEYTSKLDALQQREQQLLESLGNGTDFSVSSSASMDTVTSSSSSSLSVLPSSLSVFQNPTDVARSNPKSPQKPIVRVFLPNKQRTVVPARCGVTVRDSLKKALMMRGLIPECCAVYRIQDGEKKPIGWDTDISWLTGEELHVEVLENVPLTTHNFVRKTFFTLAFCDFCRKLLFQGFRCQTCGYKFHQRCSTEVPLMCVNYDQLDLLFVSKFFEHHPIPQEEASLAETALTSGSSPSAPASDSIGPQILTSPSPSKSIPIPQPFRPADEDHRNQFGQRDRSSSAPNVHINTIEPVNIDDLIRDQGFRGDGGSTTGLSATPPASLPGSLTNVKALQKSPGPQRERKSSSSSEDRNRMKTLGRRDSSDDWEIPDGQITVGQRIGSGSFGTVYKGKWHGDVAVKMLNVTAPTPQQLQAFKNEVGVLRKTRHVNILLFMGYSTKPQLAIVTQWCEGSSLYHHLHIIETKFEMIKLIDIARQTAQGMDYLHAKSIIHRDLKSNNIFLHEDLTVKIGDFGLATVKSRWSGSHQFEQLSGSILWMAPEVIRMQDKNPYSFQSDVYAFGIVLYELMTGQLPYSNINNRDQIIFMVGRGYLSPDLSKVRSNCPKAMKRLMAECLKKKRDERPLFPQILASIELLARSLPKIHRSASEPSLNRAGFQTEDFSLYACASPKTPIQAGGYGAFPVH
# UniProt Q8TAS1, sequence (whole entry, looked up): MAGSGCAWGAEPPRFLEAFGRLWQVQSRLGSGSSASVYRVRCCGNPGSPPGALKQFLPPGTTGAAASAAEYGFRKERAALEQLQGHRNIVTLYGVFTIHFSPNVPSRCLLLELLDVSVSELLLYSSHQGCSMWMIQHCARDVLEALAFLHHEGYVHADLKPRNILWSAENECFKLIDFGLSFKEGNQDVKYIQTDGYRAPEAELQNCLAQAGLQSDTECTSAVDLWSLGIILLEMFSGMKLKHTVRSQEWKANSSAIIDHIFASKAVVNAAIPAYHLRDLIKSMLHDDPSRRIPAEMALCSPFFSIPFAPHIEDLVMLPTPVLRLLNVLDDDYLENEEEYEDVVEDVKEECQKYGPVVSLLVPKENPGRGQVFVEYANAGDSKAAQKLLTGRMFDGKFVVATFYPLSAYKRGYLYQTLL
# UniProt Q9H0K1, sequence (whole entry, looked up): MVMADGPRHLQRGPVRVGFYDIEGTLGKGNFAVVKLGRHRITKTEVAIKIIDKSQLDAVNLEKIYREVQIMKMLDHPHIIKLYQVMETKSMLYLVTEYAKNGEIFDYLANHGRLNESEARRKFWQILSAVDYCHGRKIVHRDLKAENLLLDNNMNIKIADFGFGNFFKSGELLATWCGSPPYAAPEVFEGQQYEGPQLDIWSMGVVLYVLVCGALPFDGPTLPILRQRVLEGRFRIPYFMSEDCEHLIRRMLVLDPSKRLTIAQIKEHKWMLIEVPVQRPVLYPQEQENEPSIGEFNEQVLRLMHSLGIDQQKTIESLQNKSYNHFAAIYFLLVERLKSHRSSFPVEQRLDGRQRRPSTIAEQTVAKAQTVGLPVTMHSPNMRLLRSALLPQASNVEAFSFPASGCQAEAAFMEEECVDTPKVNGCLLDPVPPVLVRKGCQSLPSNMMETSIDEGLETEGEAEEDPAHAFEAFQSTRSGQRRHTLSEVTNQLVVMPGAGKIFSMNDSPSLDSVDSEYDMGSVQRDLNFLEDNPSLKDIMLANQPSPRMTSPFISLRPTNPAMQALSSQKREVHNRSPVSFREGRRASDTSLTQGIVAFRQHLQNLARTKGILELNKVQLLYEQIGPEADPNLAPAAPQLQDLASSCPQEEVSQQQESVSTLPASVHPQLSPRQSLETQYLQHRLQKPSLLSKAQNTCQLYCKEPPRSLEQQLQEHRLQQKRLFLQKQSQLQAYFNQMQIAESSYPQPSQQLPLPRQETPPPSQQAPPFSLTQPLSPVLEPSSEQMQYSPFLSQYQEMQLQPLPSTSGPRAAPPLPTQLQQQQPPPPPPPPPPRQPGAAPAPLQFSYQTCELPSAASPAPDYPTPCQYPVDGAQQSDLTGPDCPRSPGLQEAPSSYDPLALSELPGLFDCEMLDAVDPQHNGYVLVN
# UniProt P48729, sequence (whole entry, looked up): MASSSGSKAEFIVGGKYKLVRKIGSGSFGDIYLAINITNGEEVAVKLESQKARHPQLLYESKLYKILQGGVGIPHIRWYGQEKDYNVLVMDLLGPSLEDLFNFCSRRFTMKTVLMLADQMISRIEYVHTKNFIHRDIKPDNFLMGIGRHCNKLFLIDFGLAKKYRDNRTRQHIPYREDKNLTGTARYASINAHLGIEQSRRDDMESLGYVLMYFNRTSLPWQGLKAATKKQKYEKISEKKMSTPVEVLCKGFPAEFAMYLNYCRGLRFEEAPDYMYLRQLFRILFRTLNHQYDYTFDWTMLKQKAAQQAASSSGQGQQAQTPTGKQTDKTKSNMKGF
# UniProt P24723, sequence (whole entry, looked up): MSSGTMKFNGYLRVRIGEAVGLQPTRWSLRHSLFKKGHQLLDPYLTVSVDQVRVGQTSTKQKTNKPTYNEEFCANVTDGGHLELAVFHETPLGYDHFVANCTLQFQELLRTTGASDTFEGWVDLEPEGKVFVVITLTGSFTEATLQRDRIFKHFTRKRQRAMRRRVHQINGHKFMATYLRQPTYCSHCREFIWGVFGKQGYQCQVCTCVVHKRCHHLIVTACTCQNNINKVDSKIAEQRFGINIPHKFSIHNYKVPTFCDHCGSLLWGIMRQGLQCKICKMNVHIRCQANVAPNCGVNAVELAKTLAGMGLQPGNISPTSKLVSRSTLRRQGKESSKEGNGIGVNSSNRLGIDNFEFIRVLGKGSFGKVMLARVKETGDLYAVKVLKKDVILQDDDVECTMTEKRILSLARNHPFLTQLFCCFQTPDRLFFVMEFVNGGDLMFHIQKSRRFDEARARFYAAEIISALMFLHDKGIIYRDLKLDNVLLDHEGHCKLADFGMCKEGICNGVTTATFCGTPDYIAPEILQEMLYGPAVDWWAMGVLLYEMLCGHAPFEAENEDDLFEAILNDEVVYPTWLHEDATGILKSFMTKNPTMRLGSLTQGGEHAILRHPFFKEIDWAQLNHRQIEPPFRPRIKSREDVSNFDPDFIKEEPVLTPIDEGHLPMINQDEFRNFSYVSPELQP
# UniProt P06493, sequence (whole entry, looked up): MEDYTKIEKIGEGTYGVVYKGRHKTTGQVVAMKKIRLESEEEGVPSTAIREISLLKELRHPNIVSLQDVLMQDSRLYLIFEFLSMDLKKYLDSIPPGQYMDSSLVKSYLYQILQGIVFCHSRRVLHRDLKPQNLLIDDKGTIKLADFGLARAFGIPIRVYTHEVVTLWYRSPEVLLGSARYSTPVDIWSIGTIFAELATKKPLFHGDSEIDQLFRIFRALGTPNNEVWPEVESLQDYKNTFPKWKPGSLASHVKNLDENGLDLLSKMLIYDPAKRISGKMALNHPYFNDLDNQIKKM

# Sample 1
# Compound: COc1cc(C(=O)N2CCC(N3CCN(C)CC3)CC2)ccc1Nc1ncc2c(n1)N(C)c1ccccc1C(=O)N2C
# Action: inhibitor
# Concentration: 5 µM
target,test,test system,setting,scale,log2 fold change
"Receptor-type tyrosine-protein kinase FLT3 (FLT3, Homo sapiens, UniProt P36888)",cell-based kinome screen,human cells,,relative to: vehicle,-0.022
kinase–CDC37 interaction,kinase–CDC37 binding,human cells,oncogenic FCHSD1-BRAF fusion,relative to: vehicle,0.02
"Protein kinase C eta type, with CDC37 (PRKCH, Homo sapiens, UniProt P24723)",cell-based kinome screen,human cells,,relative to: untreated control,-0.008
kinase–CDC37 interaction,kinase–CDC37 binding,human cells,oncogenic ETV6-FLT3 fusion,relative to: vehicle,0.256
"Serine/threonine-protein kinase Kist (UHMK1, Homo sapiens, UniProt Q8TAS1)",kinase-CDC37 interaction,human cells,,relative to: vehicle,-0.339
"Serine/threonine-protein kinase B-raf (BRAF, Homo sapiens, UniProt P15056, G469E)",cell-based kinome profiling,human cells,,relative to: vehicle control,-0.056
FLT3 ITD human,kinase-CDC37 interaction,human cells,,relative to: vehicle,-0.323
kinase–CDC37 interaction,kinase–CDC37 binding,human cells,oncogenic ETV6-FGFR3 fusion,relative to: vehicle,-0.219
"Epidermal growth factor receptor (EGFR, Homo sapiens, UniProt P00533, L858R/T790M)",,human cells,,relative to: vehicle,0.146
"Angiopoietin-1 receptor (TEK, Homo sapiens, UniProt Q02763, Y897S)",kinase–CDC37 interaction,,TEK Y897S mutant,relative to: vehicle,-0.012

# Sample 2
# SMILES: Cc1sc(C(=O)NC2COC2)cc1-n1cc(NC(=O)Nc2c(F)cccc2Cl)cn1
# Concentration: 10 µM
target,effect on,action,technique,relative to,remaining activity
"cGMP-dependent protein kinase 1, isoform beta (PRKG1, Homo sapiens, UniProt Q13976)",kinase activity,,kinase panel profiling,,84.7%
"Casein kinase I isoform alpha (CSNK1A1, Homo sapiens, UniProt P48729)",enzyme activity,,,untreated control,80.2%
"Kinase suppressor of Ras 2 (KSR2, Homo sapiens, UniProt Q6VAB6)",enzyme activity,inhibitor,,,99.2%
"Cyclin-dependent kinase 1, with cyclin A (CDK1, Homo sapiens, UniProt P06493)",enzyme activity,,,untreated control,103%
"Serine/threonine-protein kinase SIK2 (SIK2, Homo sapiens, UniProt Q9H0K1)",enzyme activity,,,untreated control,88.7%

# Sample 3
# Target: Histamine H1 receptor (HRH1, Homo sapiens, UniProt P35367)
# UniProt P35367, sequence (whole entry, looked up): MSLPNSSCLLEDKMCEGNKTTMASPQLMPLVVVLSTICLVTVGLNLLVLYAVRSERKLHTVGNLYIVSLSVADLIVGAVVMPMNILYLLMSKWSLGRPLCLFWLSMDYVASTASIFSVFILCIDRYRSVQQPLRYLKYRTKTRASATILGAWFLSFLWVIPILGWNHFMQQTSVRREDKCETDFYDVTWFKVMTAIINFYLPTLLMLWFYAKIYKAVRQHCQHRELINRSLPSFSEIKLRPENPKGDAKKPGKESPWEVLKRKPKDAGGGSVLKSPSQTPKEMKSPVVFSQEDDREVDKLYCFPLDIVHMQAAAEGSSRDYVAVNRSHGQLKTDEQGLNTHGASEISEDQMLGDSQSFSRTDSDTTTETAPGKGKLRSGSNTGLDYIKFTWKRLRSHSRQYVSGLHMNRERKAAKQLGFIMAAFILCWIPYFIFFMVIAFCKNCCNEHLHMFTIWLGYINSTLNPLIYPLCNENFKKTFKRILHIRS
# Effect on: binding
# Technique: radioligand binding
# Concentration: 10 µM
SMILES,inhibition [%]
Cc1nc(Cc2cccc(C(F)(F)F)c2)sc1-c1ccc(C(N)=O)nc1,9.3
COc1cc(-c2cn(C3CCc4ccccc4N(CC(F)(F)F)C3=O)nn2)ccc1-n1ccc(C)n1 (stereo not drawn),9.72
O=C(Nc1cccnn1)N1CCC(=Cc2cccc(Oc3ccc(C(F)(F)F)cn3)c2)CC1,27.2
C[C@@]1(Cc2ccc(C#N)cc2)C(=O)N(c2cc(Cl)cc(Cl)c2)c2ncc(C(=O)NC3(c4nc(C5CCC5)no4)CC3)n21,10.3
CC(=O)Nc1nc(CN2CCC[C@H](Cc3cc(C)nc(C)c3)C2)cs1,44.2
CC(=O)N1CCC(c2ccc(C(=O)NC(=N)N)cc2C(F)(F)F)CC1,7.6
O=C1CCc2cc(Nc3cc(OC4CCOCC4)c([N+](=O)[O-])cc3Cl)ccc2N1,17
O=C(Nc1cccnn1)N1CC(CC=Cc2cncc(Oc3ccc(C(F)(F)F)cn3)n2)C1,17.3
COCCc1ccc(-c2c(C)nc3c(N4CCOCC4)ccnn23)cn1,24.6
COc1cccc(CNC(=O)c2nc3scc(COCc4ccc(C(=O)O)cc4)c3c(=O)[nH]2)c1,50.2
Cc1cc(C)c(-n2ccn3nc(-c4cccnc4)cc23)cc1NC(=O)c1cc(C#N)cc(S(F)(F)(F)(F)F)c1,25.3
COc1nc2ccc([C@@](O)(c3ccccc3)C3CCN(C(C)=O)CC3)cc2c(Cl)c1Cc1ccc(-n2cccn2)cc1,38
CCOCCn1cc(C(=O)Nc2ccc(-n3nc(-c4cccnc4)cc3C(F)(F)F)cn2)ccc1=O,12.2
Cc1nccc(COC(=O)N2C[C@@H]3[C@@H](CNC(=O)c4ccc5[nH]nnc5c4)[C@@H]3C2)n1,18.1
O=C(Nc1cnc(Oc2ccc(F)cc2)nc1)N1CCc2ncccc2[C@@H]1c1ccc(F)cc1,5.89
CC(=O)c1c(NS(C)(=O)=O)c2cc(-c3ccc(Cl)cc3)c(-c3ccc(Cl)cc3Cl)nc2n(C)c1=O,18.8
CC(C)(O)c1cncc(-c2nc3ccc(F)cc3n2C2CC2)c1,9.54
CC(=O)Nc1c(F)cc(C(=O)N[C@H]2CC[C@H](O)CC2)cc1O[C@@H](C)c1ccccc1,-10.7
CCCOc1ccc([C@H]2[C@H](C(=O)O)[C@@H](c3ccc4c(c3)OCO4)CN2CC(=O)Nc2c(CC)cccc2CC)cc1,36
O=C(O)c1cc(-c2ccc(C3CCNCC3)cc2)c2ccc(-c3ccc(C(F)(F)F)cc3)cc2c1,21.6
CN([C@@H]1CCc2c(CC(=O)O)c3cc(S(C)(=O)=O)ccc3n2C1)S(=O)(=O)c1ccc(F)cc1,-9.04
O=C1c2ccc(Nc3ccc(F)cc3F)cc2CCc2ccc(OC[C@H](O)CO)cc21,12.7
O=C(Nc1ccc(-n2nc(-c3cccnc3)cc2C(F)(F)F)cn1)c1ccc(-c2ccccc2)c(F)c1,3.07

# Sample 4
# Cell line: HaCaT
# Concentration: 100 µM
# Time: 60 h
Structure (SMILES),viability
C[C@]12CC[C@@H]3c4ccc(O)cc4C[C@@H](CCCCCCCCC[S+]([O-])CCCC(F)(F)C(F)(F)F)[C@H]3[C@@H]1CC[C@@H]2O (stereo partly drawn),150%
O=c1c(-c2ccc(O[C@@H]3O[C@H](CO)[C@@H](O)[C@H](O)[C@H]3O)cc2)coc2cc(O)cc(O)c12,153%
O=C(NC[C@H]1CN(c2ccc(N3CCOCC3=O)cc2)C(=O)O1)c1ccc(Cl)s1,117%
O=C(Nc1cccc2c(=O)cc(-c3nnn[nH]3)oc12)c1ccc(OCCCCc2ccccc2)cc1,78.5%
C[C@H]1CN(C[C@H](Cc2ccccc2)C(=O)NCC(=O)O)CC[C@@]1(C)c1cccc(O)c1,141%
CC[C@H](C)[C@H](N)C(=O)O,144%
COC(=O)C1=CO[C@@H](O)[C@@H]2C(CO)=CC[C@H]12,107%
CN(C)CCc1c[nH]c2ccc(CS(=O)(=O)N3CCCC3)cc12,119%
COc1ccc2cc1Oc1ccc(cc1)C[C@H]1c3cc(c(OC)cc3CCN1C)Oc1c(OC)c(OC)cc3c1[C@H](C2)N(C)CC3,14.2%
Cc1cc(NS(=O)(=O)c2ccc(N)cc2)nc(C)n1,140%

# A few entries again (sample 4):
Structure (SMILES),viability
C[C@]12CC[C@@H]3c4ccc(O)cc4C[C@@H](CCCCCCCCC[S+]([O-])CCCC(F)(F)C(F)(F)F)[C@H]3[C@@H]1CC[C@@H]2O (stereo partly drawn),150%
O=c1c(-c2ccc(O[C@@H]3O[C@H](CO)[C@@H](O)[C@H](O)[C@H]3O)cc2)coc2cc(O)cc(O)c12,153%
O=C(NC[C@H]1CN(c2ccc(N3CCOCC3=O)cc2)C(=O)O1)c1ccc(Cl)s1,117%
O=C(Nc1cccc2c(=O)cc(-c3nnn[nH]3)oc12)c1ccc(OCCCCc2ccccc2)cc1,78.5%
C[C@H]1CN(C[C@H](Cc2ccccc2)C(=O)NCC(=O)O)CC[C@@]1(C)c1cccc(O)c1,141%
CC[C@H](C)[C@H](N)C(=O)O,144%
COC(=O)C1=CO[C@@H](O)[C@@H]2C(CO)=CC[C@H]12,107%
CN(C)CCc1c[nH]c2ccc(CS(=O)(=O)N3CCCC3)cc12,119%
